Measured values of several laboratories.
Numbered parts are unrelated; each lists some results of a single study. Substitutions count along the parent as printed.

Sample 1 — method: RNA Bind-n-Seq; form: RNA; sample: in vitro; tested at: 365 nM; relative to: no-protein control; reading: higher = stronger binding
Target: RNA binding protein fox-1 homolog 2, RRM domain, GST-SBP tag (RBFOX2, Homo sapiens, UniProt O43251-10, residues 100-194)
Notes: natural RNA segment, single round, ends assumed
Constant ends, left off below: GGGAGUUCUACAGUCCGACGAUC … UGGAAUUCUCGGGUGCCAA
Construct (chain): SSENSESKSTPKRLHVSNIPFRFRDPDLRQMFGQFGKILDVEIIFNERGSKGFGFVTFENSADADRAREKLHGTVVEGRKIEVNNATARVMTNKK
Sequence | RBNS enrichment (R)
GUAAUGGAGUCCCCACCACCGCUUAGGUUCUGCUGGGGUCACACUGCCUUCAGAUUCCUGCCGCCAUCUUCUGCCUGCAGGAUUGGGACUCCCACCCUGGCAUCAGACAC | 0.27
UUGAUGGCGAGGGGAACACUGAUGAAUGAGAGGUCCACCAGCCCACUUCCAAGAAACAGUUCUGGCCCAAACCAGACUAUCCCUUCCCCAACAGUUCUCACUGCCUGGCC | 0.403
UUGGCUUUAUUGAUGCACGGAUGCUUUUGAACAGUAGAGCGAAAUGCUAGACAUGGAGAACUUGCUCUGUUUGUCCUUUCUACAUUUCUGUAGUUAACAGAACACUGUAA | 2.35
AACUGAAGUUUGCAGAUUCGGAUGCUGACGGGGACUGAGGCCAGCGUGUCCCAGCCCAUGCCCCUCUGUCUUCGUGGAGAGUGUUGUGUUGAGCCCAUUCAGUAGCCGAG | 0.26
CAAUAGCAUUUUCCUCUGCUUUGAAAUUUCCAGAAAUCAUCUUGGGCCAAGGCAAUGACACAUACAGAAAAGUCAUGGGCAACUUCUCCACCAAGGCUGAUUUAUGUUAU | 0.445
CCAUCAGUGAACAGAUUGCAUGGCCUUGGAGAGAGACUCUGGGCUUCUGGCUCAGAUGUGUGCAUCCUUUUAGAGCUGUUGUGGGUGUAAGUGACAUGAUGUGGCCAAAA | 1.35
CUGCAGAACAGCUUUUGAAGAUACUGGGGGGUAUCUUCAAGCCUCAGAGCAGCUUGUUUCAGAUAGAAAUUCUCUAUGGGUUGAAAUGCCAAAAACAGAAAACAUGAUGU | 1.55
UUGUUUAGGAAUAGCUACAUACCGAAGGGCUUCUAUACAUGAAUUCUAGGGGCAAAAGCCUUUUGUAGAAACCUGCACACUGCAUUCCAUCUGGGUUUUAAGUUCAGAUG | 0.447
UCUGAAGAUGAGCUAACAAUGCCUUGUCUAGGACUAUUGGCAAAUCUUUGUCGGCACAAUCUUUCUGUUCAAACACAAAUAAAAACUUUGGUAAGUUGGCUAGUUGUUUC | 0.339
UGGAGCUCAUUGAUUAGAAGAUAACACCCAGGAAUUGUUUCCACUGGGUCCUGGCUGUCCAUAAGGAAAGUGGUAUCAGUGGCCCAGCGUAGAUGGAGAGAAAGUCAGAA | 2.12
UGAGUGAUUUGGACGACCUGUUAGGGUCUCAGUAUGGAAGGAUUUGUAGUGUUUUUAGUGUUCAUUCAUCCUAUAUUUUUAUUCUCAGAUUCAAAGAAAGAGCAACUACU | 0.83
UGAGUUUUUGUUCUUAGAUAACCCACAUUAGAUGAAUGUGUUAAGUGAAAUGAUACUUGUACUCCCCCUACCCCUUUGUCAACUGCUGUGAAUGCUGUAUGGUGUGUGUU | 3.16

Sample 2 — target: FOS, bZIP domain (human); method: DHFR protein complementation; sample: yeast; relative to: wild-type JUN-FOS pair; reading: higher = stronger binding
Notes: single substitutions, most at no-binding floor
Parent: JUN, bZIP domain (human); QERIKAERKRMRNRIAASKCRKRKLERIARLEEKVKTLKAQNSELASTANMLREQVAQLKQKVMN; partner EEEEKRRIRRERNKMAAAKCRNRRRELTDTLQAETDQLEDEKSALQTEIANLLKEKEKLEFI
Variant | binding fitness [natural log]
T48I | -0.0925
V35T | -0.411
S43R | 0.0936
R30G | 0.0371
R53F | -0.897
A40K | 0.0868
L38F | -1.23
I28D | -0.24
N42W | -1.25
E44P | -1.17
M51I | -0.00303
E33W | -0.333
V56R | -1.33
T37N | 0.0476

Sample 3 — method: Sort-seq; measured: YFP reporter; sample: E. coli; notes: PhoQ-PhoP variant library; together with: 10 µM Mg2+; relative to: high Mg2+ state; reading: higher = stronger signaling
Substance: PhoQ, residues 284 288 289 292 302 303 ASSHFY
target | fold induction
PhoP, residues 12 14 15 18 19 ICWRQ (Escherichia coli, UniProt P23836) | 5.2
PhoP, residues 12 14 15 18 19 VHTVL (Escherichia coli, UniProt P23836) | 2.1
PhoP, residues 12 14 15 18 19 TQCLL (Escherichia coli, UniProt P23836) | 13.4

Sample 4 — method: RNA Bind-n-Seq; form: RNA; sample: in vitro; tested at: 200 nM; notes: whole 134-nt RNA, ends assumed; together with: 150 mM LiCl; relative to: input library; reading: higher = stronger binding; each molecule: 7-deaza-guanosine replaces G
Target: Ras GTPase-activating protein-binding protein 1, full length (G3BP1, Homo sapiens, UniProt Q13283)
Chain of UniProt Q13283 (whole entry, looked up): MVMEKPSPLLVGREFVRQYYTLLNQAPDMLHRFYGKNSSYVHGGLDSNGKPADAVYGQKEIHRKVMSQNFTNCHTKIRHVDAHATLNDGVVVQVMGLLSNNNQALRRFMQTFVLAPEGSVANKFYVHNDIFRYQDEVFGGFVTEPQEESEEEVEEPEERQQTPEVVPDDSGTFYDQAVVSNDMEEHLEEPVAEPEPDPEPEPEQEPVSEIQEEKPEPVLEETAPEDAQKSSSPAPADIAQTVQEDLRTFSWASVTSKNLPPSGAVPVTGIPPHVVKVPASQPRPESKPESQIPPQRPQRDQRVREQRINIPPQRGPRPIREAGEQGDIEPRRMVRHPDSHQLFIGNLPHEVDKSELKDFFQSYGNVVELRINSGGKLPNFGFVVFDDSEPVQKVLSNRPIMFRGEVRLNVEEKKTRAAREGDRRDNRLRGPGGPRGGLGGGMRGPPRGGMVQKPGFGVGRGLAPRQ
Constant ends, left off below: GGGAGUUCUACAGUCCGACGAUC … UGGAAUUCUCGGGUGUCAAGG
Sequence | log2 enrichment
CCUGUGCUACACAUCGUAUGUACCGAAUCGGAAAAAAGGGGAAAAAAGGGAAAAAAGGGGAAAGUAUUAUGUUACGCCGUUCGGAUCUGC | 0.139
CAAGUCCUGUGCUACACAUCGUAUGUACCGAAUCGGGGAAAGGGGAGGGGUGGGGAAAGUAUUAUGUUACGCCGUUCGGAUCUGCACUUC | 0.309
UCCUCAAGUCCUGUGCUACACAUCGUAUGUACCGAAUCGUGUGUGUGUGUGUAAAGUAUUAUGUUACGCCGUUCGGAUCUGCACUUCCAG | 0.723
UAACUUUAGAGGAGGAUCUGAUGGAUAUGGCAGUGGACGUGGAUUUGGGGAUGGCUAUAAUGGGUAUGGAGGCGGACCUGGAGGUGGCAA | -0.169
GCAGGAAGUAAAAACAAAUGGAAAUGCUUCGGAUAGUGGCAGGGGUGGGGGUUGCUGAGGAAAGGGUGGGAUGGGAGUGGGUAAAGAGUU | 0.382
CUGUGCUACACAUCGUAUGUACCGAAUCGGGGAAAAAGGGGAAAAAAAGGGGUUUUUGGGGAAAGUAUUAUGUUACGCCGUUCGGAUCUG | -0.0198
CUCAAGUCCUGUGCUACACAUCGUAUGUACCGAAUCGGGGAGGAGGGGAGGGGAAAGUAUUAUGUUACGCCGUUCGGAUCUGCACUUCCA | -0.191
AAGUCCUGUGCUACACAUCGUAUGUACCGAAUCGGGAGGGUUUUUUUGGGUUUGGGAAAGUAUUAUGUUACGCCGUUCGGAUCUGCACUU | -1.04
CCUGUGCUACACAUCGUAUGUACCGAAUCGGGUUUUUUUGGGAAAAAAAGGGUUUUUGGGAAAGUAUUAUGUUACGCCGUUCGGAUCUGC | -2.67
ACCAUCCAGGUGGGCAUCUUUGGGAAGUGGGGCAAGGGGGGGAUAGGGAGGGGGGUAACACUUUGGGAACAGGUGGUCCCAGGUCGUUUC | 0.445
CAAGUCCUGUGCUACACAUCGUAUGUACCGAAUCGGGAGGGAAAGGGUUUUUGGGAAAGUAUUAUGUUACGCCGUUCGGAUCUGCACUUC | -0.517

Sample 5 — method: DHFR PCA, deep sequencing; sample: yeast; together with: (+)-ABA 0.032 µM; relative to: wild-type fitted maximum; reading: higher = stronger binding
Target: ABI1, truncated, D143A, DHFR fusion (Arabidopsis thaliana)
Notes: methotrexate growth selection, single substitutions
Parent: PYL1, truncated, DHFR fusion (Arabidopsis thaliana); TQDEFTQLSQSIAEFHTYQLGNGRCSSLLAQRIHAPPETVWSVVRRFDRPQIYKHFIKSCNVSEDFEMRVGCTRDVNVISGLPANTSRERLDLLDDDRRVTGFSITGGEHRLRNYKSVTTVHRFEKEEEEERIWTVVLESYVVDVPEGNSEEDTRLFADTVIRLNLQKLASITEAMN; partner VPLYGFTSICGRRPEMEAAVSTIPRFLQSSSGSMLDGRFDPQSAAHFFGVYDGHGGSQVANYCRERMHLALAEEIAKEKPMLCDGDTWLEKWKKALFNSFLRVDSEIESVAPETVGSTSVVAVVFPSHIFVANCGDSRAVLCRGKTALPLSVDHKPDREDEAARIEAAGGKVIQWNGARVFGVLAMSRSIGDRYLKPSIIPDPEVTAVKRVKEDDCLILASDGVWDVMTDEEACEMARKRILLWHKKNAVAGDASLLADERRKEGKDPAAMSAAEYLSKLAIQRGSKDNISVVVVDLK
Variant | relative binding score [%]
R90T | 2.8
C25G | -4.2
V43N | -1.18
R123T | 18.6
D153C | -1.07
W41H | -1.63
V136Y | 3.36
W134T | 35
D97I | 14.6
V121F | 1.81
I33R | 10.1
S171E | 43.9
L156P | 1.53
I162F | -15.7
S59H | 3.83
D159P | -9.56
R46D | -8.98
P146T | 15.1
F47S | 21.7

Sample 6 — method: protein binding microarray; form: double-stranded DNA, one strand shown; sample: in vitro; tested at: not given; relative to: not given; reading: higher = stronger binding
Target: Histone acetyltransferase KAT6A, both winged helices, GST fusion (KAT6A, Homo sapiens, UniProt Q92794, residues 1-181)
Notes: 8-mer, flanks averaged, mean of 2 arrays, mostly near background
Target sequence (chain): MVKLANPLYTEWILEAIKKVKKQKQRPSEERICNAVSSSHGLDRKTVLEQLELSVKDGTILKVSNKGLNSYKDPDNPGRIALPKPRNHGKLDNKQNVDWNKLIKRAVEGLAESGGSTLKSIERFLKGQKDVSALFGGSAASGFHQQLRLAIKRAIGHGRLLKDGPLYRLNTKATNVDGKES
Sequence | E-score
AATCGAAG | -0.0115
AGTTTCAC | -0.0575
GGGACTAA | -0.129
CACGAGAG | -0.0837
AGTTTTCG | -0.102
GGGATACC | 0.0797
ATTTCATG | -0.133
CGTGGTAA | -0.0383
TCACACAA | -0.0621
GGGTGGTA | -0.149
GTATTCCA | 0.0445
AAGGGAGA | -0.255
CCATGTCC | 0.062
ACACCTAG | -0.197
ACGTCTTG | -0.0185
CTTGAAGC | 0.0752
AACCTGCT | -0.268
ATACGCTA | 0.0721

Sample 7 — target: CCNB3, cyclin fold, Cln2 fusion (human); method: yeast growth competition, sequencing; sample: yeast; notes: strong parent motif; relative to: not given; reading: higher = stronger binding
Parent: E2F1 docking peptide (human); PPVKRRLDFETDH
Variant | normalised enrichment score
PPVKRRQDFETDH [L7Q] | 0.245
PPVRRRLDFETDH [K4R] | 4.25
PPVKRRLDEETDH [F9E] | 0.328
PPVKRRLDTETDH [F9T] | -0.0966
PPSKRRLDFETDH [V3S] | 0.31
PSVKRRLDFETDH [P2S] | 2.48
PPVKRRLQFETDH [D8Q] | 2.34
PPVSRRLDFETDH [K4S] | 1.35
PPVKRRLDFETVH [D12V] | 3.2
PPVARRLDFETDH [K4A] | 2.08
PFVKRRLDFETDH [P2F] | 1.57
PPVKRRLDFNTDH [E10N] | 3.23
PPVKRRRDFETDH [L7R] | -0.0832
PPVERRLDFETDH [K4E] | 0.0811
PIVKRRLDFETDH [P2I] | 1.36
PPVKHRLDFETDH [R5H] | -0.0159
PDVKRRLDFETDH [P2D] | 1.56
PPVKRRLRFETDH [D8R] | 1.41
PPVFRRLDFETDH [K4F] | 1.66
PPVKRRLDFETQH [D12Q] | 2.87

For quick reference, copied from above (sample 6):
Sequence | E-score
CACGAGAG | -0.0837
AGTTTTCG | -0.102
GGGATACC | 0.0797
ATTTCATG | -0.133
CGTGGTAA | -0.0383
TCACACAA | -0.0621
GGGTGGTA | -0.149
GTATTCCA | 0.0445
AAGGGAGA | -0.255
CCATGTCC | 0.062
ACACCTAG | -0.197
ACGTCTTG | -0.0185
CTTGAAGC | 0.0752
